Results collected from several papers.
Each line is one published result; not all experiments were run side by side.
Technique: steady-state kinetics
B1: LYPLA2 (Homo sapiens, UniProt O95372); chain MCGNTMSVPLLTDAATVSGAERETAAVIFLHGLGDTGHSWADALSTIRLPHVKYICPHAPRIPVTLNMKMVMPSWFDLMGLSPDAPEDEAGIKKAAENIKALIEHEMKNGIPANRIVLGGFSQGGALSLYTALTCPHPLAGIVALSCWLPLHRAFPQAANGSAKDLAILQCHGELDPMVPVRFGALTAEKLRSVVTPARVQFKTYPGVMHSSCPQEMAAVKEFLEKLLPPV
B2: protein F222G (Planktothrix agardhii, UniProt F5B6Z0); chain MIVNVIQKDRLKEQKLQFIRNHQQAFDVEPIYPLPLFEDFVTSIEGDCSLEASCKIESDKLIASRFLLFFEDKTQEWQKYLHQSLTFFGLVENRVGVKINYSLLQQFLGSSFDFSKVTVLSAGIDLRNNLAESSLKMHIRIKDYPEKLDKAFALSDGAADGNYLKDFVNLIGFDFYFNGKSEIEIYAEVQEDDFFKPEINNLVWQHFPKTALQPLKASSLFGTGLSKANNNPVLYYHLKNRQDLTNYFKLNDTAQRVHSFYQHQDILPYMWVGTAQKELEKTRIENIRLYYYKSFKMESN
B3: HCT R356E (Coleus scutellarioides, UniProt E8ZAP2); chain MKIHVRDSTLVRPSAATPAVSLWNSNVDLVVPNFHTPSVYFYRPSGADNFFDTAVMKAALGRALVSFYPMAGRLKRDEDGRVEIDCNAEGVLFVEAESDGTVDDYGDFAPSLELRRLIPAVDYSQGISAYPLLVLQVTFFKCGGVSLGVGMQHHAADGFSGLHFINTWSDMARGLDITLPPFIDRTLLSARDPPQPQFKHVEYQPPPAMKTYEPAETVVSIFKLTKDQLTTLKAKSKEDGNTTTYSSYEMLSGHVWRCTCLARGLPEEQETKLYIATDGRSRLQPQLPPGYFGNVIFTATPLAVAGDLGSKPVWYAASKIHDALARMDNDYLRSALDFLELQPDLKALVRGAHTFECPNLGITSWVRLPIHDADFGWGRPIFMGPGGIAYEGLSFVLPSPTNDGSLSVAISLQAEHMKLFEKLLYQI
B4: DCXR (Homo sapiens, UniProt Q7Z4W1); chain MELFLAGRRVLVTGAGKGIGRGTVQALHATGARVVAVSRTQADLDSLVRECPGIEPVCVDLGDWEATERALGSVGPVDLLVNNAAVALLQPFLEVTKEAFDRSFEVNLRAVIQVSQIVARGLIARGVPGAIVNVSSQCSQRAVTNHSVYCSTKGALDMLTKVMALELGPHKIRVNAVNPTVVMTSMGQATWSDPHKAKTMLNRIPLGKFAEVEHVVNAILFLLSDRSGMTTGSTLPVEGGFWAC
B5: ycjS (Escherichia coli, UniProt P77503); chain MKSAMTSSPLRVAIIGAGQVADKVHASYYCTRNDLELVAVCDSRLSQAQALAEKYGNASVWDDPQAMLLAVKPDVVSVCSPNRFHYEHTLMALEAGCHVMCEKPPAMTPEQAREMCDTARKLGKVLAYDFHHRFALDTQQLREQVTNGVLGEIYVTTARALRRCGVPGWGVFTNKELQGGGPLIDIGIHMLDAAMYVLGFPAVKSVNAHSFQKIGTQKSCGQFGEWDPATYSVEDSLFGTIEFHNGGILWLETSFALNIREQSIMNVSFCGDKAGATLFPAHIYTDNNGELMTLMQREIADDNRHLRSMEAFINHVQGKPVMIADAEQGYIIQQLVAALYQSAETGTRVEL
B6: CDO (Bacillus subtilis, UniProt O32085); chain MELYECIQDIFGGLKNPSVKDLATSLKQIPNAAKLSQPYIKEPDQYAYGRNAIYRNNELEIIVINIPPNKETTVHDHGQSIGCAMVLEGKLLNSIYRSTGEHAELSNSYFVHEGECLISTKGLIHKMSNPTSERMVSLHVYSPPLEDMTVFEEQKEVLENS
B7: nicX (Pseudomonas putida, UniProt Q88FY1); chain MPVSNAQLTQMFEHVLKLSRVDETQSVAVLKSHYSDPRTVNAAMEAAQRLKAKVYAVELPAFNHPTAMGNDMTAYCGDTALTGNLAAQRALEAADLVVDTMMLLHSPEQEQILKTGTRILLAVEPPEVLARMLPTEDDKRRVLAAETLLKQARSLHVRSKAGSDFHAPLGQYPAVTEYGYADEPGRWDHWPSGFLFTWPNEDSAEGTLVLDVGDIILPFKNYCRERITLEIEKGFITGIHGGFEAEYLRDYMKYFNDPEVYGISHIGWGLQPRAQWTAMGLHDRNDGMCMDARAFYGNFLFSTGPNTEVGGKRKTPCHLDIPLRNCDIYLDDKAVVLAGDVVAPEESRAR
B8: UGT3A2 A344T (Homo sapiens, UniProt Q3SY77); chain AKILTISTVGGSHYLLMDRVSQILQDHGHNVTMLNHKRGPFMPDFKKEEKSYQVISWLAPEDHQREFKKSFDFFLEETLGGRGKFENLLNVLEYLALQCSHFLNRKDIMDSLKNENFDMVIVETFDYCPFLIAEKLGKPFVAILSTSFGSLEFGLPIPLSYVPVFRSLLTDHMDFWGRVKNFLMFFSFCRRQQHMQSTFDNTIKEHFTEGSRPVLSHLLLKAELWFINSDFAFDFARPLLPNTVYVGGLMEKPIKPVPQDLENFIAKFGDSGFVLVTLGSMVNTCQNPEIFKEMNNAFAHLPQGVIWKCQCSHWPKDVHLATNVKIVDWLPQSDLLAHPSIRLFVTHGGQNSIMEAIQHGVPMVGIPLFGDQPENMVRVEAKKFGVSIQLKKLKAETLALKMKQIMEDKRYKSAAVAASVILRSHPLSPTQRLVGWIDHVLQTGGATHLKPYVFQQPWHEQYLLDVFVFLLGLTLGTLWLCGKLLGMAVWWLRGARKVKET
B9: carbamoyl phosphate synthetase large subunit (Escherichia coli, UniProt P00968); chain PKRTDIKSILILGAGPIVIGQACEFDYSGAQACKALREEGYRVILVNSNPATIMTDPEMADATYIEPIHWEVVRKIIEKERPDAVLPTMGGQTALNCALELERQGVLEEFGVTMIGATADAIDKAEDRRRFDVAMKKIGLETARSGIAHTMEEALAVAADVGFPCIIRPSFTMGGSGGGIAYNREEFEEICARGLDLSPTKELLIDESLIGWKEYEMEVVRDKNDNCIIVCSIENFDAMGIHTGDSITVAPAQTLTDKEYQIMRNASMAVLREIGVETGGSNVQFAVNPKNGRLIVIEMNPRVSRSSALASKATGFPIAKVAAKLAVGYTLDELMNDITGGRTPASFEPSIDYVVTKIPRFNFEKFAGANDRLTTQMKSVGEVMAIGRTQQESLQKALRGLEVGATGFDPKVSLDDPEALTKIRRELKDAGADRIWYIADAFRAGLSVDGVFNLTNIDRWFLVQIEELVRLEEKVAEVGITGLNADFLRQLKRKGFADARLAKLAGVREAEIRKLRDQYDLHPVYKRVDTCAAEFATDTAYMYSTYEEECEANPSTDREKIMVLGGGPNRIGQGIEFDYCCVHASLALREDGYETIMVNCNPETVSTDYDTSDRLYFEPVTLEDVLEIVRIEKPKGVIVQYGGQTPLKLARALEAAGVPVIGTSPDAIDRAEDRERFQHAVERLKLKQPANATVTAIEMAVEKAKEIGYPLVVRPSYVLGGRAMEIVYDEADLRRYFQTAVSVSNDAPVLLDHFLDDAVEVDVDAICDGEMVLIGGIMEHIEQAGVHSGDSACSLPAYTLSQEIQDVMRQQVQKLAFELQVRGLMNVQFAVKNNEVYLIEVNPRAARTVPFVSKATGVPLAKVAARVMAGKSLAEQGVTKEVIPPYYSVKEVVLPFNKFPGVDPLLGPEMRSTGEVMGVGRTFAEAFAKAQLGSNSTMKKHGRALLSVREGDKERVVDLAAKLLKQGFELDATHGTAIVLGEAGINPRLVNKVHEGRPHIQDRIKNGEYTYIINTTSGRRAIEDSRVIRRSALQYKVHYDTTLNGGFATAMALNADATEKVISVQEMHAQIK
B10: Saccharopine reductase C154S (Saccharomyces cerevisiae, UniProt P38999); chain MGKNVLLLGSGFVAQPVIDTLAANDDINVTVACRTLANAQALAKPSGSKAISLDVTDDSALDKVLADNDVVISLIPYTFHPNVVKSAIRTKTDVVTSSYISPALRELEPEIVKAGITVMNEIGLDPGIDHLYAVKTIDEVHRAGGKLKSFLSYSGGLPAPEDSDNPLGYKFSWSSRGVLLALRNSAKYWKDGKIETVSSEDLMATAKPYFIYPGYAFVCYPNRDSTLFKDLYHIPEAETVIRGTLRYQGFPEFVKALVDMGMLKDDANEIFSKPIAWNEALKQYLGAKSTSKEDLIASIDSKATWKDDEDRERILSGFAWLGLFSDAKITPRGNALDTLCARLEELMQYEDNERDMVVLQHKFGIEWADGTTETRTSTLVDYGKVGGYSSMAATVGYPVAIATKFVLDGTIKGPGLLAPYSPEINDPIMKELKDKYGIYLKEKTVA
B11: PRP43 (Saccharomyces cerevisiae, UniProt P53131); chain MGSKRRFSSEHPDPVETSIPEQAAEIAEELSKQHPLPSEEPLVHHDAGEFKGLQRHHTSAEEAQKLEDGKINPFTGREFTPKYVDILKIRRELPVHAQRDEFLKLYQNNQIMVFVGETGSGKTTQIPQFVLFDEMPHLENTQVACTQPRRVAAMSVAQRVAEEMDVKLGEEVGYSIRFENKTSNKTILKYMTDGMLLREAMEDHDLSRYSCIILDEAHERTLATDILMGLLKQVVKRRPDLKIIIMSATLDAEKFQRYFNDAPLLAVPGRTYPVELYYTPEFQRDYLDSAIRTVLQIHATEEAGDILLFLTGEDEIEDAVRKISLEGDQLVREEGCGPLSVYPLYGSLPPHQQQRIFEPAPESHNGRPGRKVVISTNIAETSLTIDGIVYVVDPGFSKQKVYNPRIRVESLLVSPISKASAQQRAGRAGRTRPGKCFRLYTEEAFQKELIEQSYPEILRSNLSSTVLELKKLGIDDLVHFDFMDPPAPETMMRALEELNYLACLDDEGNLTPLGRLASQFPLDPMLAVMLIGSFEFQCSQEILTIVAMLSVPNVFIRPTKDKKRADDAKNIFAHPDGDHITLLNVYHAFKSDEAYEYGIHKWCRDHYLNYRSLSAADNIRSQLERLMNRYNLELNTTDYESPKYFDNIRKALASGFFMQVAKKRSGAKGYITVKDNQDVLIHPSTVLGHDAEWVIYNEFVLTSKNYIRTVTSVRPEWLIEIAPAYYDLSNFQKGDVKLSLERIKEKVDRLNELKQGKNKKKSKHSKK
Chain of UniProt Q9HXU0 (whole entry, looked up): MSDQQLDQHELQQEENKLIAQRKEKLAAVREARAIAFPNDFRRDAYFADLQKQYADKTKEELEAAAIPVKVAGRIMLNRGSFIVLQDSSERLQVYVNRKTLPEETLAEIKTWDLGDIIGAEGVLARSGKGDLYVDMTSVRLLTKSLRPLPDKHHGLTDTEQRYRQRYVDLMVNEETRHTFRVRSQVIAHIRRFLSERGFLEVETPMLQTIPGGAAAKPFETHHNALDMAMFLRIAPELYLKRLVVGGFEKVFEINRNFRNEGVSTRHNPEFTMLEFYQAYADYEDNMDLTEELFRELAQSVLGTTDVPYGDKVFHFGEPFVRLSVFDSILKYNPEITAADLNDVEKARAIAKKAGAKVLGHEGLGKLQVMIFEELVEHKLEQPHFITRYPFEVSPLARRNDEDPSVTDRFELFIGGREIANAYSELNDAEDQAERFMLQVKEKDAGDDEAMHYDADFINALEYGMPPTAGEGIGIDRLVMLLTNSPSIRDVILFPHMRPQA

B1 (LYPLA2)  Km (CN(C)c1ccc(/N=N/c2ccc(C(=O)NCCCn3cc(CCCCCCCCCCCCCCCC(=O)SC[C@H](NC(=O)c4cc5ccc(O)cc5oc4=O)C(=O)N4CCOCC4)nn3)cc2)cc1; pH 7.4, 37 °C): 19.3 µM
B2 (protein F222G)  Km (CC(C)=CCOP(=O)(O)OP(=O)(O)O; with: tri-Tyr peptide acceptor): 1250 µM
B3 (HCT R356E)  Km (NCc1ccc(O)c(O)c1; pH 8, pseudo-first-order, with: p-coumaroyl CoA): 16300 µM
B4 (DCXR)  Km (CC(=O)C(C)=O; pH 7, with: NADPH 200 µM): 170 µM
B5 (ycjS)  Km (CO[C@H]1O[C@H](CO)[C@@H](O)[C@H](O)[C@H]1O; pH 8, 30 °C, with: NAD+ 2.0 mM): 5600 µM
B6 (CDO)  Km (N[C@@H](CS)C(=O)O; pH 6.1, 37 °C, with: O2, Fe(II)): 6600 µM
B7 (nicX)  Km (Oc1ccc(O)nc1; pH 7.5, 20 °C, with: O2; Fe2+ 0.025 mM): 74 µM
enzyme (Pseudomonas aeruginosa, UniProt Q9HXU0)  Km (NCCCC[C@H](N)C(=O)O; pH 7.5, 37 °C): 45.3 µM
B8 (UGT3A2 A344T)  Km (O=c1ccn([C@@H]2O[C@H](CO[P@@](=O)(O)O[P@@](=O)(O)O[C@H]3O[C@H](CO)[C@@H](O)[C@H](O)[C@H]3O)[C@@H](O)[C@H]2O)c(=O)[nH]1; pH 7.4, 37 °C, not purified, with: 1-OH-pyrene 16 µM, MgCl2 10 mM, alamethicin): 597 µM
B9  Km (Nc1ncnc2c1ncn2[C@@H]1O[C@H](COP(=O)(O)OP(=O)(O)OP(=O)(O)O)[C@@H](O)[C@H]1O; pH 7.6, KCl 100 mM, with: glutamine 10 mM, ornithine 10 mM): 240 µM
AphC (Rhodococcus jostii, UniProt Q0S9X1)  Km (Oc1ccc(-c2ccccc2)cc1O; pH 8, 25 °C, apparent, with: O2): 7.4 µM
B10 (Saccharopine reductase C154S)  Km (N[C@@H](CCCCN[C@@H](CCC(=O)O)C(=O)O)C(=O)O; pH 9, 25 °C, with: saccharopine): 18300 µM
B11 (PRP43)  Km (O=c1ccn([C@@H]2O[C@H](COP(=O)(O)OP(=O)(O)OP(=O)(O)O)[C@@H](O)[C@H]2O)c(=O)[nH]1; pH 8): 120 µM
